# Results from different studies.
# Parts stem from different laboratories: compare values within a part only.
# Chain of UniProt Q9C0B0 (30-357, looked up): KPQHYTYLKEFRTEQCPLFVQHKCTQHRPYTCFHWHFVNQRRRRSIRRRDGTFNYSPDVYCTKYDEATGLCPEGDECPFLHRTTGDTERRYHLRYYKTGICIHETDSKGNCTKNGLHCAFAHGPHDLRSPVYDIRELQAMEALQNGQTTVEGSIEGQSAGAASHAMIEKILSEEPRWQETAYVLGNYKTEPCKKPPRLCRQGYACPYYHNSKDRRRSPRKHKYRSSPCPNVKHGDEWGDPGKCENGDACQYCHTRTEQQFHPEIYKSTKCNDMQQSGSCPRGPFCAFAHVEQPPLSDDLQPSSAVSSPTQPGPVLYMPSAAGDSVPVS

# Set 1 — technique: RNA Bind-n-Seq; molecule type: RNA; medium: in vitro; concentration: 1 µM; notes: whole 134-nt RNA, ends assumed; together with: 150 mM KCl; reference: input library; direction: higher = stronger binding
# Target: Ras GTPase-activating protein-binding protein 1, RRM domain (G3BP1, Homo sapiens, UniProt Q13283)
# Chain of UniProt Q13283 (whole entry, looked up): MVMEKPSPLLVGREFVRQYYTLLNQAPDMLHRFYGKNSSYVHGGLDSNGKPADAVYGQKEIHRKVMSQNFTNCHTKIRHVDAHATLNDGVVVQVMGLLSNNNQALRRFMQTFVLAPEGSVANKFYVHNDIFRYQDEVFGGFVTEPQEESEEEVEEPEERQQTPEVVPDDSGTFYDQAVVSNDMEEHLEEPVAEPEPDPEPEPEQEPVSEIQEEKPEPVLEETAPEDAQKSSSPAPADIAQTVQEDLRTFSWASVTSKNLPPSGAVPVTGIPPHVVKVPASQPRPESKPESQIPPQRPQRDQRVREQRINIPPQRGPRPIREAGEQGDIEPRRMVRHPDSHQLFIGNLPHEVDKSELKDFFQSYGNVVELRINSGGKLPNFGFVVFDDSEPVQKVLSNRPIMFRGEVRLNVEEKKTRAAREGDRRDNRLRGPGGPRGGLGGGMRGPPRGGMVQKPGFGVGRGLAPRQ
Oligonucleotide,log2 enrichment
GGGAGUUCUACAGUCCGACGAUCAAGUCCUGUGCUACACAUCGUAUGUACCGAAUCGGGAAAAAGGAAAAAGGAAAAAGGAAAGUAUUAUGUUACGCCGUUCGGAUCUGCACUUGGAAUUCUCGGGUGUCAAGG,0.034
GGGAGUUCUACAGUCCGACGAUCUCAAGUCCUGUGCUACACAUCGUAUGUACCGAAUCGGGGAAGGAAGGGGAAGGGGAAAGUAUUAUGUUACGCCGUUCGGAUCUGCACUUCUGGAAUUCUCGGGUGUCAAGG,0.502
GGGAGUUCUACAGUCCGACGAUCCACAGACAACACGCACCCACCCAGACACAGAGGGAAGGGGUUGGGAUGGGGACAGGGUGCACAGCAGGGCGGGGUAGGACCCCAGCCCCUUGGAAUUCUCGGGUGUCAAGG,-0.00723
GGGAGUUCUACAGUCCGACGAUCCUGUGCUACACAUCGUAUGUACCGAAUCGGGGUUUUUGGGGUUUUUGGGGUUUUUUUGGGGAAAGUAUUAUGUUACGCCGUUCGGAUCUGUGGAAUUCUCGGGUGUCAAGG,1.01

# Set 2 — technique: protein-binding microarray; molecule type: double-stranded DNA, one strand shown; medium: in vitro; concentration: 0.8 µM; notes: whole 60-bp probe, no competitor; direction: higher = stronger binding
# Target: Centromere-binding protein 1, full length, N-terminal tag (CBF1, Saccharomyces cerevisiae, UniProt P17106, residues 1-351)
# Chain of UniProt P17106 (whole entry, looked up): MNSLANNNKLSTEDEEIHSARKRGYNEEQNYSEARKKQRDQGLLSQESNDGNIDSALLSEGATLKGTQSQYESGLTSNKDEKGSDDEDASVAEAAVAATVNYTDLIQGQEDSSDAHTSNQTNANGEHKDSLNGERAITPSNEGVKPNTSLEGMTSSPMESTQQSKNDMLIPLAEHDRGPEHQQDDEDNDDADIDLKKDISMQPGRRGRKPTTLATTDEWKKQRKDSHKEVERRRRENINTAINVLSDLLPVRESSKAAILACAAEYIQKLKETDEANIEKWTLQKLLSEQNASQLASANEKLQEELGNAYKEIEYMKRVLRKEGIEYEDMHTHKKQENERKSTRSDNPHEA
Oligonucleotide,fluorescence intensity
CTATATAAACGGAGAGTGATGACGTTTTAAAAGTTCGTCTTGATTCGCTTGACGCTGCTG,553 a.u.
CTATTCATATCCTAAAACGTGTTGACAACACTTTTCGTCTTGATTCGCTTGACGCTGCTG,599 a.u.
CTATTTTACGTTAATGACGTCATGGTAGTGTTCTTCGTCTTGATTCGCTTGACGCTGCTG,509 a.u.

# Single results of other studies
Molecule,target,assay,system,setting,how to read,quantity,result
GGGAGUUCUACAGUCCGACGAUCUGUGCCCUGAUGGCAGCUGAAGUUUGAUUCAGAUGGGCACUUUUCUUCCCCUUCCCUGCCCCGUUUCCUUUUGUUCCUUGAGUCCACGCAGAAUUCCAUUCUCUGGUCAGCAGACAGGCUCAACAGAGGAUUGAGCAUCA,"RING finger protein unkempt homolog, zinc fingers 1-6, GST-SBP tag (UNK, Homo sapiens, UniProt Q9C0B0, residues 30-357)",RNA Bind-n-Seq,"RNA, in vitro","not given, RNA with constant flanks, ends assumed","reference: input RNA pool, higher = stronger binding",bound/input enrichment,0.331 ratio
"PhoQ, residues 284 288 289 292 302 303 TLSLKA","PhoP, residues 12 14 15 18 19 SGWQI (Escherichia coli, UniProt P23836)","Sort-seq, item: YFP reporter",E. coli,"PhoQ-PhoP variant library, together with: 10 µM Mg2+","reference: high Mg2+ state, higher = stronger signaling",fold induction,14.4

# Repeated from above (set 1):
Oligonucleotide,log2 enrichment
GGGAGUUCUACAGUCCGACGAUCCUGUGCUACACAUCGUAUGUACCGAAUCGGGGUUUUUGGGGUUUUUGGGGUUUUUUUGGGGAAAGUAUUAUGUUACGCCGUUCGGAUCUGUGGAAUUCUCGGGUGUCAAGG,1.01
